Assay results collected from several papers.
± marks the error that the study gave.

CC[C@H](C)[C@H](NC(=O)[C@H](CCC(=O)O)NC(=O)CNC(=O)[C@@H](NC(=O)[C@H](CC(C)C)NC(=O)[C@H](CC(C)C)NC(=O)[C@H](CC(C)C)NC(=O)[C@H](CC(C)C)NC(=O)[C@H](CS)NC(=O)[C@H](CO)NC(=O)[C@H](Cc1ccccc1)NC(=O)CNC(=O)[C@H](CCCNC(=N)N)NC(=O)[C@@H]1CCCN1C(=O)[C@H](C)NC(=O)[C@H](CCSC)NC(=O)CNC(=O)CNC(=O)[C@H](Cc1ccccc1)NC(=O)[C@H](CCCCN)NC(=O)[C@H](Cc1c(C)cc(O)cc1C)NC(=O)[C@H](N)CCCNC(=N)N)[C@@H](C)O)C(=O)N[C@@H](CC(=O)O)C(=O)N[C@@H](CC(C)C)C(=O)N1CCC[C@H]1C(=O)N[C@H](C(=O)N[C@@H](CCCCN)C(=O)N[C@@H](CCCNC(=N)N)C(=O)N[C@@H](CCCNC(=N)N)C(=O)N[C@@H](C)C(N)=O)C(C)C  hemolysis (mouse erythrocytes; 10 µM, 1 h, 37 °C): 3.3%
CC1C(=NOCc2cc(-c3ccc(Cl)cc3)no2)C(C)C(c2ccc(Br)cc2)OC1c1ccc(Br)cc1 (stereo not shown)  IC50 (human PBMC; cytotoxicity, MTT): 489 µg/mL
CC[C@H](C)[C@H](NC(=O)[C@H](CCC(N)=O)NC(=O)[C@@H](NC(=O)[C@@H]1CCCN1[C@@H]1CN(C(=O)[C@H](CCCCN)NC(=O)[C@H](CC(N)=O)NC(=O)[C@@H](NC(=O)[C@@H](NC(=O)[C@H](CCC(N)=O)NC(=O)[C@@H](N)C(C)C)[C@@H](C)CC)[C@@H](C)CC)CC[C@H]1NS(=O)(=O)c1ccc(C)cc1)C(C)C)C(=O)N[C@H](C(=O)N[C@@H](Cc1ccc(O)cc1)C(=O)N[C@@H](CCCCN)C(N)=O)C(C)C  highest non-toxic concentration (PC-12 (neuronally differentiated); LDH release; 20 h): ≥ 100 µM
CC[C@@H](C)[C@@H](NC(=O)[C@@H](CCCCN)NC(=O)[C@H](NC(=O)[C@@H](Cc1c[nH]c2ccccc12)NC(=O)[C@@H](Cc1ccccc1)NC(=O)[C@@H](CCC(N)=O)NC(=O)[C@@H](CC(N)=O)NC(=O)[C@@H](CCCNC(=N)N)NC(=O)[C@@H](CCCNC(=N)N)NC(=O)[C@@H](CCSC)NC(=O)[C@@H](CCCCN)NC(=O)[C@@H](Cc1c[nH]c2ccccc12)NC(=O)[C@@H](CCCCN)NC(=O)[C@@H](CCCCN)NC(=O)CNC(=O)[C@@H](CCCCN)NC(=O)CNC(=O)[C@@H](CCC(N)=O)NC(=O)[C@@H](Cc1c[nH]cn1)NC(=O)[C@H](N)CCCNC(=N)N)[C@H](C)CC)C(=O)N[C@H](CCC(N)=O)C(=O)N[C@H](CCCNC(=N)N)C(=O)O  remaining activity (16HBE14o- with CF sputum; measured: cAMP; 25 µM, added: neutrophil elastase 20 µg/mL): 72%
O=C(CCC(=O)OCCNC(=O)[C@H](Cc1ccccc1)NC(=O)[C@H](Cc1ccccc1)NC(=O)Cc1ccc2ccccc2c1)NCCS(=O)(=O)O  intracellular concentration (SK-OV-3; LC-MS, measured: precursor; 50 µM, 4 h, 37 °C): 62 µM
Cc1c(Br)cnc2c1NC(=O)c1cccnc1N2C1CC1  fold change (primary human hepatocytes; CYP3A4 activity, inducer; 100 µM, 72 h, added: midazolam 1'-hydroxylation; baseline: untreated): no effect
CCCCCCCCCCCCCCCC(=O)OCC(CSC[C@H](N)C(=O)N[C@@H](CO)C(=O)N[C@@H](CCCCN)C(=O)N[C@@H](CCCCN)C(=O)N[C@@H](CCCCN)C(=O)N[C@@H](CCCCN)C(=O)NCCCCCC(=O)N[C@@H](CCCCN)C(=O)N[C@@H](CC(C)C)C(=O)N[C@H](C(=O)N[C@@H](Cc1ccccc1)C(=O)N[C@@H](Cc1ccccc1)C(=O)N[C@@H](Cc1ccc2ccccc2c1)C(=O)O)C(C)C)OC(=O)CCCCCCCCCCCCCCC (stereo partly shown)  protein level (BV-2; western blot, measured: NLRP3; 1.0 µM, 12 h): increased
CC1C(=NOCc2cn(-c3ccccc3)nn2)C(C)C(c2ccc(Br)cc2)OC1c1ccc(Br)cc1 (stereo not shown)  IC50 (human PBMC; cytotoxicity, MTT): 317 µg/mL
Cc1cc(C)cc([C@H]2C[C@@H]2C(=O)N[C@@H](C(=O)NCc2ccccc2)c2ccc(C)c(C)c2)c1  CC50 (BHK-21; cell growth or viability, MTT; 24 h): > 100000 nM
CC(C)C[C@H](NC(=O)[C@H](CCCCN)NC(=O)[C@H](CC(C)C)NC(=O)[C@H](CC(C)C)NC(=O)[C@H](CCCCN)NC(=O)[C@H](CCCCN)NC(=O)[C@H](CC(C)C)NC(=O)[C@H](CC(C)C)NC(=O)[C@H](CCCCN)NC(=O)[C@H](CC(C)C)NC(=O)[C@H](CC(C)C)NC(=O)[C@H](CCCCN)NC(=O)[C@H](CCCCN)NC(=O)[C@H](CC(C)C)NC(=O)[C@@H](N)CSSC[C@H](N)C(=O)N[C@@H](CC(C)C)C(=O)N[C@@H](CCC(=O)O)C(=O)N[C@@H](CCC(=O)O)C(=O)N[C@@H](CC(C)C)C(=O)N[C@@H](CC(C)C)C(=O)N[C@@H](Cc1c[nH]cn1)C(=O)N[C@@H](Cc1c[nH]cn1)C(=O)N[C@@H](CC(C)C)C(=O)N[C@@H](CCC(=O)O)C(=O)N[C@@H](CCC(=O)O)C(=O)N[C@@H](CC(C)C)C(=O)N[C@@H](CC(C)C)C(=O)N[C@@H](Cc1c[nH]cn1)C(=O)N[C@@H](Cc1c[nH]cn1)C(N)=O)C(N)=O  hemolysis (mouse erythrocytes; 200 µM, 1 h, 37 °C; baseline: Triton X-100): ~11.3%
Cc1ccc(Nc2c(NC3CCN(Cc4ccccc4)CC3)c(=O)c2=O)cc1  viability (SH-SY5Y; MTT; 12.5 µM, 24 h): 94.83 ± 0.43%
CC(C)[C@@H]1NC(=O)CNC(=O)[C@H](CC(N)=O)NC(=O)[C@H](CCCNC(=N)N)NC(=O)[C@H](Cc2ccc(O)cc2)NC(=O)[C@H](C(C)C)NC(=O)[C@@H](NC(=O)[C@@H](NC(=O)[C@H](CC(N)=O)NC(=O)[C@H](Cc2c[nH]c3ccccc23)NC(=O)[C@H](C)NC(=O)[C@H](Cc2ccccc2)NC(=O)CNC(=O)[C@H](CCCCN)NC(=O)[C@H](Cc2ccccc2)NC(=O)[C@H](Cc2ccccc2)NC(=O)[C@H](CCCCN)NC(=O)OCC2c3ccccc3-c3ccccc32)C(C)C)CSSC[C@@H](C(=O)N[C@@H](Cc2c[nH]cn2)C(=O)N[C@@H](CCCNC(=N)N)C(=O)N[C@@H](CCCNC(=N)N)C(=O)N[C@@H](C)C(=O)N[C@@H](CC(N)=O)C(N)=O)NC(=O)[C@H](C(C)C)NC(=O)[C@H](CCCNC(=N)N)NC1=O  hemolysis (mouse erythrocytes; 128 µM, 1 h): 6.08%
O=c1c(NCc2ccc(O)cc2)c(NC2CCN(Cc3ccccc3)CC2)c1=O  viability (SH-SY5Y; MTT; 12.5 µM, 24 h): 97.8 ± 2.14%
Cc1c(C)c(C)[c-](C)c1C.Fc1c[c-]c(-c2ccccn2)cc1.[Cl-].[Ir+3]  membrane and particulate iridium (A2780; ICP-MS; IC50): 28.4%
O=C1c2ccccc2C(=O)N1CCCSc1nc2cc3ccccc3cc2c(=O)n1Cc1ccccc1  maximum non-toxic concentration (BGM; morphology and trypan blue; 72 h): 40 µg/mL
COc1ccc(CNc2c(NC3CCN(Cc4ccccc4)CC3)c(=O)c2=O)cc1  viability (SH-SY5Y; MTT; 6.25 µM, 24 h): 101 ± 1.79%
Cn1c(NN)nc2cc3ccccc3cc2c1=O  maximum non-toxic concentration (BGM; morphology and trypan blue; 72 h): 55 µg/mL
O=c1c(Nc2ccc(O)cc2)c(NC2CCN(Cc3ccccc3)CC2)c1=O  viability (SH-SY5Y; MTT; 12.5 µM, 24 h): 102 ± 1.32%
CC(=O)N(O)CCCP(=O)(O)O  mutant frequency (L5178Y TK+/- clone 3.7.2C; mouse lymphoma TK; 2200 µg/mL, 4 h, with S9; baseline: negative control): 112%
COc1cccc(CSc2nc3cc4ccccc4cc3c(=O)n2C)c1  maximum non-toxic concentration (BGM; morphology and trypan blue; 72 h): 50 µg/mL
CC[C@H](C)[C@H](NC(=O)CNC(=O)[C@H](CCCNC(=N)N)NC(=O)[C@H](CCCCN)NC(=O)CNC(=O)[C@H](CC(N)=O)NC(=O)CNC(=O)CNC(=O)CNC(=O)[C@H](CC(C)C)NC(=O)[C@H](C)NC(=O)CNC(=O)[C@H](Cc1c[nH]c2ccccc12)NC(=O)[C@H](Cc1ccc(O)cc1)NC(=O)CNC(=O)[C@H](CCCNC(=N)N)NC(=O)[C@H](CCSC)NC(=O)CNC(=O)[C@H](CCCCN)NC(=O)[C@H](CC(N)=O)NC(=O)[C@H](Cc1ccccc1)NC(=O)[C@H](CCCCN)NC(=O)[C@@H](N)CC(N)=O)C(=O)N[C@@H](CCCNC(=N)N)C(=O)NCC(=O)N[C@@H](Cc1ccc(O)cc1)C(=O)N[C@@H](CC(=O)O)C(=O)O  cytotoxicity (3T3 fibroblasts; MTT; 1 nM to 10 µM, 24 h): not toxic
O=C1/C(=N\NC(=S)NN=Cc2cccs2)c2ccccc2N1Cc1ccccc1  minimum cytotoxic concentration (CRFK; cell morphology): 63 µM
CC(C)C[C@H](NC(=O)[C@H](CCCCN)NC(=O)[C@H](CC(C)C)NC(=O)[C@H](CC(C)C)NC(=O)[C@H](CCCCN)NC(=O)[C@H](CCCCN)NC(=O)[C@H](CC(C)C)NC(=O)[C@H](CC(C)C)NC(=O)[C@H](CCCCN)NC(=O)[C@H](CC(C)C)NC(=O)[C@H](CC(C)C)NC(=O)[C@H](CCCCN)NC(=O)[C@H](CCCCN)NC(=O)[C@@H](N)CC(C)C)C(N)=O  hemolysis (mouse erythrocytes; 200 µM, 1 h, 37 °C; baseline: Triton X-100): 71.1%
COc1ccc(Nc2c(NC3CCN(Cc4ccccc4)CC3)c(=O)c2=O)cc1OC  viability (SH-SY5Y; MTT; 12.5 µM, 24 h): 79.3 ± 2.57%
O=C(CCCC[C@@H]1SC[C@@H]2NC(=O)N[C@@H]21)NCCCC[C@@H](NC(=O)[C@@H](Cc1ccccc1)NC(=O)[C@@H](Cc1ccccc1)NC(=O)Cc1ccc2ccccc2c1)C(=O)N[C@H](Cc1ccc(OP(=O)(O)O)cc1)C(=O)O  conversion (HS5; dephosphorylation, measured: D1-B; 8 h): 39.5%
O=c1c(NCCc2ccc(Br)cc2)c(NC2CCN(Cc3ccccc3)CC2)c1=O  viability (SH-SY5Y; MTT; 6.25 µM, 24 h): 107.3 ± 0.59%
CC=C(C)C(=O)OC1C(O)C2OC(COC(=O)CCCCCCCCCC(CCCCC)OC3OC(C)C(OC(C)=O)C(O)C3O2)C1OC(=O)C=Cc1ccccc1 (stereo not shown)  IC50 (Jurkat; cytotoxicity): 9.7 nM
CSCC[C@H](NC(=O)CCCCCNC(=S)Nc1ccc2c(c1)C(=O)OC21c2ccc(O)cc2Oc2cc(O)ccc21)C(=O)N[C@@H](C)C(=O)N[C@@H](CC(N)=O)C(=O)N[C@@H](CC(C)C)C(=O)NCC(=O)N[C@@H](Cc1ccc(O)cc1)C(=O)N[C@@H](Cc1c[nH]c2ccccc12)C(=O)N[C@@H](CC(C)C)C(=O)N[C@@H](CC(C)C)C(=O)N[C@@H](C)C(=O)N[C@@H](CC(C)C)C(=O)N[C@@H](Cc1ccccc1)C(=O)N[C@H](C(=O)N[C@H](C(=O)N[C@@H](Cc1ccc(O)cc1)C(=O)N[C@@H](Cc1c[nH]c2ccccc12)C(=O)N[C@H](C(=O)N[C@@H](CC(=O)O)C(=O)N[C@@H](CC(C)C)C(=O)NCC(=O)N[C@@H](CC(C)C)C(=O)N[C@H](C(=O)N[C@@H](CCCCN)C(=O)N[C@@H](CCCCN)C(=O)N[C@@H](CCCNC(=N)N)C(=O)N1CCC[C@H]1C(=O)N[C@@H](CCCCN)C(=O)N1CCC[C@H]1C(=O)O)C(C)C)[C@@H](C)O)[C@@H](C)O)C(C)C  cells with internalized IRF5-colocalized peptide (human PBMCs; imaging flow cytometry, FITC-labelled; 1 µM, 30 min; baseline: CD19+ B cells): 19.2%
COC(=O)C1=CO[C@@H](O)[C@@H]2C(Cn3cc(C4(O)CCCCC4)nn3)=CC[C@H]12  viability (SK-N-SH; MTT; 0.15 µM, 24 h, added: H2O2 250 µM): 79.9 ± 0.5%
Cc1ccc(CNc2c(NC3CCN(Cc4ccccc4)CC3)c(=O)c2=O)cc1  viability (SH-SY5Y; MTT; 12.5 µM, 24 h): 95.7 ± 1.64%
NNc1nc2cc3ccccc3cc2c(=O)n1Cc1ccccc1  maximum non-toxic concentration (BGM; morphology and trypan blue; 72 h): 60 µg/mL

Excerpt of the above:
CC[C@@H](C)[C@@H](NC(=O)[C@@H](CCCCN)NC(=O)[C@H](NC(=O)[C@@H](Cc1c[nH]c2ccccc12)NC(=O)[C@@H](Cc1ccccc1)NC(=O)[C@@H](CCC(N)=O)NC(=O)[C@@H](CC(N)=O)NC(=O)[C@@H](CCCNC(=N)N)NC(=O)[C@@H](CCCNC(=N)N)NC(=O)[C@@H](CCSC)NC(=O)[C@@H](CCCCN)NC(=O)[C@@H](Cc1c[nH]c2ccccc12)NC(=O)[C@@H](CCCCN)NC(=O)[C@@H](CCCCN)NC(=O)CNC(=O)[C@@H](CCCCN)NC(=O)CNC(=O)[C@@H](CCC(N)=O)NC(=O)[C@@H](Cc1c[nH]cn1)NC(=O)[C@H](N)CCCNC(=N)N)[C@H](C)CC)C(=O)N[C@H](CCC(N)=O)C(=O)N[C@H](CCCNC(=N)N)C(=O)O  remaining activity (16HBE14o- with CF sputum; measured: cAMP; 25 µM, added: neutrophil elastase 20 µg/mL): 72%
Cc1ccc(CNc2c(NC3CCN(Cc4ccccc4)CC3)c(=O)c2=O)cc1  viability (SH-SY5Y; MTT; 12.5 µM, 24 h): 95.7 ± 1.64%
